Assay results pooled from the literature.
Compare with care: the assays were run in different laboratories. ± gives the spread as reported.

| Structure (SMILES) | assay | test system | conditions | tissue uptake |
| --- | --- | --- | --- | --- |
| CN(C)c1ccc(-c2nc3ccc(OCCCCCN4CCN5CCN(CC4)CC(=O)[O][Al]([18F])[O]C(=O)C5)cc3s2)cc1 | – | ICR mouse, brain | intravenous, 10 min | 0.16 ± 0.05 %ID/g |
| C[C@H](CN(C)Cc1ccccc1)NC(=O)c1ccc(-c2noc(C(F)(F)[18F])n2)cc1 | PET imaging | female Sprague-Dawley rats, hippocampus | intravenous, 1 min | 2.37 ± 0.74 SUV |
| CCCC[C@H](NC(=O)CNC(=O)CNC(=O)CN1CCN(CC(=O)O)CCN(CC(=O)O)CC1)C(=O)N[C@H]1CC(=O)NCCCC[C@@H](C(N)=O)NC(=O)[C@H](Cc2c[nH]c3ccccc23)NC(=O)[C@H](CCCNC(=N)N)NC(=O)[C@@H](Cc2ccccc2)NC(=O)[C@H](Cc2c[nH]cn2)NC1=O [copper-64 labelled] | – | female C57 mouse, B16/F1 melanoma, pancreas | intravenous, 0.037 MBq, 2 h | 0.29 ± 0.13 %ID/g |
| CCCC[C@H](NC(=O)CNC(=O)CNC(=O)CN1CCN(CC(=O)O)CCN(CC(=O)O)CC1)C(=O)N[C@H]1CC(=O)NCCCC[C@@H](C(N)=O)NC(=O)[C@H](Cc2c[nH]c3ccccc23)NC(=O)[C@H](CCCNC(=N)N)NC(=O)[C@@H](Cc2ccccc2)NC(=O)[C@H](Cc2c[nH]cn2)NC1=O [gallium-67 labelled] | – | female C57 mice, B16/F1 melanoma, kidneys | intravenous, 0.037 MBq, 4 h | 7.58 ± 2.7 %ID/g |
| O=C([O-])CN1CCN(CC(=O)[O-])CCN(CC(=O)[O-])CCN(CC(=O)[O-])CC1.[64Cu+2] | – | healthy athymic nude mice, lung | intravenous, 24 h | 0.71 %ID/g |
| CC(C)[C@H](NC(=O)[C@@H]1CCCN1C(=O)[C@H](CCCNC(=N)N)NC(=O)[C@H](CS)NC(=O)[C@H](Cc1c[nH]c2ccccc12)NC(=O)[C@H](CCCNC(=N)N)NC(=O)[C@@H](Cc1ccccc1)NC(=O)[C@H](Cc1c[nH]cn1)NC(=O)[C@H](CCC(=O)O)NC(=O)[C@H](CS)NC(=O)[C@H](CS)NC(=O)[C@@H]1CC(=O)N[C@@H](CCCNC(=N)N)C(=O)NCC(=O)N[C@@H](CC(=O)O)C(=O)N[C@H](Cc2ccc(O)cc2)C(=O)N1)C(N)=O [technetium-99m labelled] | – | C57 mouse, female, B16/F1 melanoma, pancreas | intravenous, 0.037 MBq, 0.5 h | 1.02 ± 0.52 %ID/g |
| CCCC[C@@H]1NC(=O)[C@@H](NC(=O)[C@H](CCC(=O)O)NC(=O)CNC(=O)CN2CCN(CC(=O)O)CCN(CC(=O)O)CCN(CC(=O)O)CC2)CCCCNC(=O)C[C@@H](C(N)=O)NC(=O)[C@H](C(C)C)NC(=O)[C@@H]2CCCN2C(=O)[C@H](CCCNC(=N)N)NC(=O)CNC(=O)[C@H](Cc2c[nH]c3ccccc23)NC(=O)[C@H](CCCNC(=N)N)NC(=O)[C@@H](Cc2ccccc2)NC(=O)[C@H](Cc2c[nH]cn2)NC(=O)[C@H](CCC(=O)O)NC1=O [gallium-67 labelled] | – | normal C57 mice, brain | intravenous, 0.037 MBq/mouse, 2 h | 0.01 ± 0.01 %ID/g |
| CN1C(=O)[C@@H](Cc2ccc(O)c(I)c2)NC(=O)CNC(=O)[C@H](Cc2ccc3ccccc3c2)NC(=O)[C@H](CCCNC(=N)N)NC(=O)[C@H]1CCCNC(=O)c1ccc(CNC(=O)CN2CCN(CC(=O)O)CCN(CC(=O)O)CCN(CC(=O)O)CC2)cc1 [lutetium-177 labelled] | refers to: 177Lu radioactivity | female CB-17 SCID mice, Daudi xenograft, adrenals | intravenous, 0.16 nmol per mouse, 1 h | 1.5 ± 0.6 %ID/g |
| CCCC[C@H](NC(=O)CNC(=O)CNC(=O)CN1CCN(CC(=O)O)CCN(CC(=O)O)CCN(CC(=O)O)CC1)C(=O)N[C@H]1CC(=O)NCCCC[C@@H](C(N)=O)NC(=O)[C@H](Cc2c[nH]c3ccccc23)NC(=O)[C@H](CCCNC(=N)N)NC(=O)[C@@H](Cc2ccccc2)NC(=O)[C@H](Cc2c[nH]cn2)NC1=O [copper-64 labelled] | – | female C57 mouse, B16/F1 melanoma, liver | intravenous, 0.037 MBq, 4 h | 9.61 ± 1.34 %ID/g |
| OCc1cn(Cc2ccc(-c3noc(-c4ccc(OCC[18F])c(C(F)(F)F)c4)n3)cc2)nn1 | – | Lewis rat, female, bone | intravenous, 1 h | 0.45 ± 0.01 %ID/g |
| NC12CNCCNCC(NCc3ccc(CNC(=O)CCCC(=O)NCc4ccc(-c5nncnn5)cc4)cc3)(CNCCNC1)CNCCNC2.[64Cu+2] | – | athymic nude mice SW1222 xenograft, muscle | 4 h post injection, 24 h accumulation interval, added: huA33-TCO pretargeting | 0.37 ± 0.07 %ID/g |
| O=C([O-])CN1CCN(CC(=O)[O-])CCN(CC(=O)NCCc2ccc3c(c2)C2C=CCC2C(c2cc4c(cc2Br)OCO4)N3)CCN(CC(=O)[O-])CC1.[111In+3] (stereo not drawn) | – | mouse, Hec50 endometrial tumour, uterus | 0.5 h post injection | 1.46 ± 0.23 %ID/g |

Some of these lines once more:
| Structure (SMILES) | assay | test system | conditions | tissue uptake |
| --- | --- | --- | --- | --- |
| O=C([O-])CN1CCN(CC(=O)[O-])CCN(CC(=O)[O-])CCN(CC(=O)[O-])CC1.[64Cu+2] | – | healthy athymic nude mice, lung | intravenous, 24 h | 0.71 %ID/g |
